Results pooled from the literature.
Lines come from different studies, so protocols differ. “And” joins repeats or separate records; there may be more than shown. ± gives the spread as reported.
Methyl-accepting chemotaxis protein CtaA sensing domain: Methyl-accepting chemotaxis protein CtaA, sensing domain (Pseudomonas fluorescens, UniProt Q3K7T6)
Methyl-accepting chemotaxis protein CtaA: Methyl-accepting chemotaxis protein CtaA (Pseudomonas fluorescens, UniProt Q3K7T6)
UniProt O94788, sequence (whole entry, looked up): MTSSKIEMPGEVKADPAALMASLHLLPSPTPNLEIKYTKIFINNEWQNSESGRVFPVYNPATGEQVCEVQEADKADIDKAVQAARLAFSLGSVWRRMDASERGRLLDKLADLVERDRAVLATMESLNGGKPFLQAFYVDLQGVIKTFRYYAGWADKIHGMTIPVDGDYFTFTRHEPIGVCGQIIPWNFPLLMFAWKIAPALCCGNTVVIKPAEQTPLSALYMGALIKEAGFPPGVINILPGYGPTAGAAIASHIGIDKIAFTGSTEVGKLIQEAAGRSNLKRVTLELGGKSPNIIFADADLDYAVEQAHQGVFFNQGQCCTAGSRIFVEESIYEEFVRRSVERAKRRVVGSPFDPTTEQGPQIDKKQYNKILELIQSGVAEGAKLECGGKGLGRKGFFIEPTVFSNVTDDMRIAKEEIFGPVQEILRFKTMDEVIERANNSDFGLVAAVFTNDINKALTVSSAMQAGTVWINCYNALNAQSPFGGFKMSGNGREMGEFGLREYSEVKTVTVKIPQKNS
UniProt P53215, sequence (whole entry, unmodified, looked up): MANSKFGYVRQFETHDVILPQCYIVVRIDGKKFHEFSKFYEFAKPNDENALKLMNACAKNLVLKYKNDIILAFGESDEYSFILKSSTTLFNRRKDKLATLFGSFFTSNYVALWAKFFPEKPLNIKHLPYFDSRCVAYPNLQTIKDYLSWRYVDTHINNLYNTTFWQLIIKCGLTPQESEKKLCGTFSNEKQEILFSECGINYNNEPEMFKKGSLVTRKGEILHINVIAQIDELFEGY
UniProt P02696, sequence (whole entry, looked up): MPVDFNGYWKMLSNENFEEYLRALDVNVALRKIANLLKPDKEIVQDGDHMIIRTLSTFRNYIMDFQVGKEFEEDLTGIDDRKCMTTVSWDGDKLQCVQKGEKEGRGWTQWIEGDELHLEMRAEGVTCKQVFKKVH
UniProt Q14849, sequence (whole entry, looked up): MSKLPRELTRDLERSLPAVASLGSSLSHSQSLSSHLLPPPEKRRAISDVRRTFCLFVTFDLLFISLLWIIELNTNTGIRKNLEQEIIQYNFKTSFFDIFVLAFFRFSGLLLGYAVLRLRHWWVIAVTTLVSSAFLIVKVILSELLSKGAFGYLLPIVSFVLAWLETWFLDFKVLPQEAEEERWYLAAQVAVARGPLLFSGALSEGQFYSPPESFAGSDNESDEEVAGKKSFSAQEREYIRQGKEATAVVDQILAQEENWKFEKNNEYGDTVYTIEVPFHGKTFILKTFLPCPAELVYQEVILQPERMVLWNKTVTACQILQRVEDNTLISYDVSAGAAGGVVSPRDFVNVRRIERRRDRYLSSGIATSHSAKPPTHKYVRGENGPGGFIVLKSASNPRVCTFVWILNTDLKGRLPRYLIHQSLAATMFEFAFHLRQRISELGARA
UniProt P11308, sequence (whole entry, looked up): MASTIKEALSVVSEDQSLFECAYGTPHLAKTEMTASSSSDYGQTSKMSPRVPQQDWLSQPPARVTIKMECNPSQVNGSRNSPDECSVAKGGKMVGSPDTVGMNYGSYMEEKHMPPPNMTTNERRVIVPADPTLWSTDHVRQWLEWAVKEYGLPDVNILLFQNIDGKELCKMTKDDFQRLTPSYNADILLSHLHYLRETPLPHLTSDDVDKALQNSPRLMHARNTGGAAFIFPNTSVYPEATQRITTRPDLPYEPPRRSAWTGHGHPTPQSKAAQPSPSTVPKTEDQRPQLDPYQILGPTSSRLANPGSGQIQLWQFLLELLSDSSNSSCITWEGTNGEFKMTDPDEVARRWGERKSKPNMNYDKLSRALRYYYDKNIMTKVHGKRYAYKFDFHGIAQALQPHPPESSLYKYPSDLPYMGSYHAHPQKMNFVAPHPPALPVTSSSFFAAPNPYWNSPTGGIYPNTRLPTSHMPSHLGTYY
UniProt P62873, sequence (whole entry, looked up): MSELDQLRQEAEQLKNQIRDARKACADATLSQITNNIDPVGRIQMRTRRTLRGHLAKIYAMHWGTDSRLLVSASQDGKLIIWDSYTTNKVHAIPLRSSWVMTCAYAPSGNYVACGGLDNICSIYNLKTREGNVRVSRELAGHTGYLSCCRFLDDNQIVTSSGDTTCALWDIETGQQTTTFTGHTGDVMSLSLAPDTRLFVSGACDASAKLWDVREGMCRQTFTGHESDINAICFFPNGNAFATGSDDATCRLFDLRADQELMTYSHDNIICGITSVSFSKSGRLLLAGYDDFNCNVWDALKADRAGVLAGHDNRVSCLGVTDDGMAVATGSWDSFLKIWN
UniProt P02730, sequence (whole entry, looked up): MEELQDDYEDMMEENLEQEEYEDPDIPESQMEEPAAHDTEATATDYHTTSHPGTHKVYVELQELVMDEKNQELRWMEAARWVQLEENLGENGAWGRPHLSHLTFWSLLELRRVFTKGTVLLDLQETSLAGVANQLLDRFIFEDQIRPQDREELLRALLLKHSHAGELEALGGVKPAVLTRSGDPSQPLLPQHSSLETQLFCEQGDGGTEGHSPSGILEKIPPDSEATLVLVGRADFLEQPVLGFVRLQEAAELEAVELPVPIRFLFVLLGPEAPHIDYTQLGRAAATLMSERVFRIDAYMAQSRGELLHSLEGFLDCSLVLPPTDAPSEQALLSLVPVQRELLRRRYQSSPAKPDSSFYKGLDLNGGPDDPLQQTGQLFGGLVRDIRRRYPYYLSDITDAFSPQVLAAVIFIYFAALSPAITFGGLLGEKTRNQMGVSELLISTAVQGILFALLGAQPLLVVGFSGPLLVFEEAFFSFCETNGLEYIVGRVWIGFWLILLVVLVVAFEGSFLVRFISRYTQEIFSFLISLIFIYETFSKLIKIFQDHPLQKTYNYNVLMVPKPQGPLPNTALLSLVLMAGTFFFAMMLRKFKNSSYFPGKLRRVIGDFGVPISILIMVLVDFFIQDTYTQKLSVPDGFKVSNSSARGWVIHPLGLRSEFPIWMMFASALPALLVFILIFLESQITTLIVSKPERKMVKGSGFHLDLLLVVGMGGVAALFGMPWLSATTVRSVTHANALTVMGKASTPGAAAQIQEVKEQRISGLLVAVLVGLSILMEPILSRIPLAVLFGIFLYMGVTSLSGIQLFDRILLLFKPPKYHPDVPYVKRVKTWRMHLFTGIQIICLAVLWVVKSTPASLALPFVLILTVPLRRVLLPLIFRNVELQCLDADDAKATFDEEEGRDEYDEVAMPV
UniProt Q64663, sequence (whole entry, unmodified, looked up): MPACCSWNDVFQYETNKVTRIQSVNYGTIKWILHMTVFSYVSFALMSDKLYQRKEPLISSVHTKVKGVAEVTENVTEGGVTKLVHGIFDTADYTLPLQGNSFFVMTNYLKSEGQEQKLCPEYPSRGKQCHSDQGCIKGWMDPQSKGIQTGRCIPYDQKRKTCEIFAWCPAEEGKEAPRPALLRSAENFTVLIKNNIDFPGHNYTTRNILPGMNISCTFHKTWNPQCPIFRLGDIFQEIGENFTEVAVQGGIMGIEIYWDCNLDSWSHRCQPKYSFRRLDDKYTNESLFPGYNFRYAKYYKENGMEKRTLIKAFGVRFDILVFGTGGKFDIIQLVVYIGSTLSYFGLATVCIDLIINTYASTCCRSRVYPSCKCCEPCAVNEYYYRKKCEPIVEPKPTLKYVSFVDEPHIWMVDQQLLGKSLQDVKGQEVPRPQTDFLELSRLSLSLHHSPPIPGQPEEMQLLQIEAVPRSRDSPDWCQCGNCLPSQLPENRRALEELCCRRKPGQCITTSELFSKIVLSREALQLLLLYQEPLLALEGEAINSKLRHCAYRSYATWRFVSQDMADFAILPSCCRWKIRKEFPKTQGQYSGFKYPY
UniProt P54941, sequence (whole entry, looked up): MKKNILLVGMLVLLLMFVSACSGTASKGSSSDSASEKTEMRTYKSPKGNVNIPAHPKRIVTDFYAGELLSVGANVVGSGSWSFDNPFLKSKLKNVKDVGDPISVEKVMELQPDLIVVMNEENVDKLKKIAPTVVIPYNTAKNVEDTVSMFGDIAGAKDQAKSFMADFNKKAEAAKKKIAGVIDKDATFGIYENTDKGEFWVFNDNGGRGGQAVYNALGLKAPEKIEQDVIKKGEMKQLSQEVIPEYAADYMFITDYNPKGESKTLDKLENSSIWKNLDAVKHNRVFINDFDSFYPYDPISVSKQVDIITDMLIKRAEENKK
UniProt P59768, sequence (whole entry, looked up): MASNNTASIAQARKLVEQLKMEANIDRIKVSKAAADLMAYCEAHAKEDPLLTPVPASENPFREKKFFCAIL
UniProt P17931, sequence (whole entry, looked up): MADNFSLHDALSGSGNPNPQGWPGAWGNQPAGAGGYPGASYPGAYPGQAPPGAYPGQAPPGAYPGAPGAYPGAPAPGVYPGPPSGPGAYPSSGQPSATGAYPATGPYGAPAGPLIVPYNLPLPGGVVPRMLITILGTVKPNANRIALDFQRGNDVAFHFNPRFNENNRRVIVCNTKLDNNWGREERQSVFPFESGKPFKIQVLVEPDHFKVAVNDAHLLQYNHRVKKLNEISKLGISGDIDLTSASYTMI

Substance	target	assay	test system	conditions	Kd
Nc1ncnc2c1ncn2[C@@H]1O[C@H](COP(=O)(O)OP(=O)(O)OP(=O)(O)O)[C@@H](O)[C@H]1O	tRNA(His) guanylyltransferase (THG1, Saccharomyces cerevisiae, UniProt P53215, R27A)	tRNA(His) adenylylation, substrate, single-turnover kinetics	–	pH 6.0, room temperature, added: p-tRNA(His)	300 ± 100 µM
CC[C@H](C)[C@H](NC(=O)CNC(=O)[C@H](CC(=O)O)NC(=O)[C@@H](NC(=O)[C@H](C)NC(=O)[C@H](CCC(N)=O)NC(=O)[C@@H](NC(=O)[C@H](CCSC)NC(=O)[C@H](CCCNC(=N)N)NC(=O)[C@@H](N)CCC(=O)O)[C@@H](C)CC)[C@@H](C)CC)C(=O)N[C@@H](CC(N)=O)C(=O)N[C@@H](C)C(=O)N[C@@H](CCC(N)=O)C(=O)N[C@@H](CCCCN)C(=O)N[C@@H](CCC(N)=O)C(=O)N[C@@H](Cc1c[nH]c2ccccc12)C(=O)N[C@@H](CC(C)C)C(=O)N[C@@H](CCCCN)C(=O)N[C@@H](CO)C(=O)N[C@@H](CCC(=O)O)C(=O)N[C@@H](CC(=O)O)C(=O)N[C@H](C(=O)N[C@@H](CCC(N)=O)C(=O)N[C@@H](CCCNC(=N)N)C(=O)O)[C@@H](C)CC	Guanine nucleotide-binding protein G(I)/G(S)/G(T) subunit beta-1/gamma-2 (Homo sapiens, UniProt P59768+P62873)	binding, SPR	–	pH 8	> 10 µM
CC1=C(/C=C/C(C)=C/C=C/C(C)=C/C=C/C=C(C)/C=C/C=C(C)/C=C/C2=C(C)CCCC2(C)C)C(C)(C)CCC1	Albumin (ALB, Homo sapiens, UniProt P02768)	binding, SPR, FastStep injection	–	pH 7.4, 25 °C, immobilized protein	1.44 ± 0.07 µM
Nc1ncnc2c1ncn2[C@H]1C[C@H](O)[C@@H](COP(=O)(O)OP(=O)(O)OP(=O)(O)O)O1	DNA polymerase iota (Homo sapiens, UniProt Q9UNA4)	substrate	–	pH 8.0, 37 °C, pre-steady-state, Mg2+, added: dNTP opposite O2-POB-dT template	43 ± 12 µM
CC(=O)N[C@@H](CC(C)C)C(=O)N[C@@H](CCCCN)C(=O)N[C@@H](CCCCN)C(=O)N[C@@H](CC(C)C)C(=O)N[C@@H](CC(C)C)C(=O)N[C@@H](CCCCN)C(=O)N[C@@H](Cc1c[nH]c2ccccc12)C(=O)N[C@@H](CC(C)C)C(=O)N[C@@H](CCCCN)C(=O)N[C@@H](CCCCN)C(=O)N[C@@H](CC(C)C)C(=O)N[C@@H](CC(C)C)C(=O)N[C@@H](CCCCN)C(=O)N[C@@H](CC(C)C)C(=O)N[C@@H](C)C(=O)NCC(N)=O	16S rRNA A-site hairpin (Escherichia coli)	competitive fluorescence anisotropy	–	pH 7.4, 20 °C, added: rhodamine-Rev peptide	0.017 ± 0.002 µM
O=C1c2c(O)ccc(O)c2C(=O)c2c(NCCNCCO)ccc(NCCNCCO)c21	HIV-1 SL2 RNA stem-loop	binding, ESI-FTMS titration	–	pH 7.5	6.6 ± 0.7 µM
[Cl][Fe]([Cl])[Cl]	Iron(3+)-hydroxamate-binding protein YxeB (yxeB, Bacillus subtilis, UniProt P54941)	binding, Trp fluorescence quenching	–	pH 7.4, added: yxeB 100 nM	0.115 ± 0.055 µM
Nc1ccn([C@@H]2O[C@H](CO)[C@@H](O)[C@H]2O)c(=O)n1	type 1 ribosome-inactivating protein (Momordica balsamina, UniProt D9J2T9)	surface plasmon resonance	–	25 °C	0.94 µM
Nc1ncnc2c1ncn2[C@@H]1O[C@H](COP(=O)(O)OP(=O)(O)OP(=O)(O)O)[C@@H](O)[C@H]1O	P2X purinoceptor 7 (P2rx7, Rattus norvegicus, UniProt Q64663)	binding, bio-layer interferometry	–	–	0.54 ± 0.23 µM
Cc1ccc(C(=O)Nc2ccccc2C(=O)O)cc1S(=O)(=O)Nc1cccc(Cl)c1	Replication protein A 70 kDa DNA-binding subunit, N-terminal domain (RPA1, Homo sapiens, UniProt P27694)	fluorescence polarization competition	–	added: FITC-ATRIP probe	29 ± 2 µM
C[C@H](N)C(=O)O	Methyl-accepting chemotaxis protein CtaA sensing domain	binding, thermal shift, curve fitting	–	–	2 ± 0.2 µM
CC1(C)[C@@H](O[C@H]2O[C@H](C(=O)O)[C@@H](O)[C@H](O)[C@H]2O[C@@H]2O[C@H](C(=O)O)[C@@H](O)[C@H](O)[C@H]2O)CC[C@]2(C)[C@H]3C(=O)C=C4[C@@H]5C[C@@](C)(C(=O)O)CC[C@]5(C)CC[C@@]4(C)[C@]3(C)CC[C@@H]12	HMGB1 (Homo sapiens, UniProt P09429)	binding, biolayer interferometry	–	25 °C, 1 % DMSO	185 µM
CC(=O)N[C@@H](CC(C)C)C(=O)N[C@@H](CCCCN)C(=O)N[C@@H](CCCCN)C(=O)N[C@@H](CC(C)C)C(=O)N[C@@H](CC(C)C)C(=O)N[C@@H](CCCCN)C(=O)N[C@@H](CC(C)C)C(=O)N[C@@H](CC(C)C)C(=O)N[C@@H](CCCCN)C(=O)N[C@@H](CCCCN)C(=O)N[C@@H](CC(C)C)C(=O)N[C@@H](Cc1c[nH]c2ccccc12)C(=O)N[C@@H](CCCCN)C(=O)N[C@@H](CC(C)C)C(=O)N[C@@H](C)C(=O)NCC(N)=O	16S rRNA A-site hairpin (Escherichia coli)	competitive fluorescence anisotropy	–	pH 7.4, 20 °C, added: rhodamine-Rev peptide	0.017 ± 0.001 µM
Nc1nc2c(ncn2[C@@H]2O[C@H](COP(=O)(O)OP(=O)(O)OP(=O)(O)O)[C@@H](O)[C@H]2O)c(=O)[nH]1	tRNA(His) guanylyltransferase (THG1, Saccharomyces cerevisiae, UniProt P53215, D77A)	nucleotidyl transfer, substrate, single-turnover kinetics	–	pH 7.5, room temperature, added: ppp-tRNA(His)	11 ± 4 µM
FITC-CXCL8	dermatan sulfate	binding, fluorescence titration	–	20 °C	0.17 µM
NC(=O)c1ccc[n+]([C@@H]2O[C@H](COP(=O)([O-])OP(=O)(O)OC[C@H]3O[C@@H](n4cnc5c(N)ncnc54)[C@H](O)[C@@H]3O)[C@@H](O)[C@H]2O)c1	ALDH1A2 (Homo sapiens, UniProt O94788)	isothermal titration calorimetry	–	30 °C, reverse titration	11.5 µM and 12 µM
COc1cccc2c1C(=O)c1c(O)c3c(c(O)c1C2=O)C[C@@](O)(C(C)=O)C[C@@H]3O[C@H]1C[C@H](N)[C@H](O)[C@H](C)O1	HIV-1 SL2 RNA stem-loop	binding, ESI-FTMS titration	–	pH 7.5	22.7 ± 3.6 µM
CCCCCCCCCCCCCCCC(=O)SCCNC(=O)CCNC(=O)[C@H](O)C(C)(C)COP(=O)(O)OP(=O)(O)OC[C@H]1O[C@@H](n2cnc3c(N)ncnc32)[C@H](O)[C@@H]1OP(=O)(O)O	Carnitine O-palmitoyltransferase 1, liver isoform, C-terminal peptide (Rattus norvegicus, UniProt P32198)	intrinsic fluorescence quenching	–	CPT1 peptide 0.1 µM	0.005 ± 0.001 µM

Substance	target	assay	test system	conditions	Kd
HPVHHYQ-NH2 (C-amide)	Escherichia coli 16S rRNA A-site hairpin	RNase A footprinting	peptide	pH 7.2, 37 °C	16 ± 4 µM
CC(C)C[C@H](N)C(=O)O	Methyl-accepting chemotaxis protein CtaA	binding, ITC	–	melting temperature	10 ± 2 µM
C[n+]1cccc2cc(C=NNC(=O)c3ccc4ccc5ccc(C(=O)NN=Cc6ccc7c(ccc[n+]7C)c6)nc5c4n3)ccc21	telomeric G4 DNA hybrid-1	binding, native ESI-MS	100 mM trimethylammonium acetate	1 mM KCl	0.42 µM
N[C@@H](CO)C(=O)O	Methyl-accepting chemotaxis protein CtaA	binding, ITC	–	–	12 ± 1 µM
O=P(O)(O)O[C@H]1[C@H](OP(=O)(O)O)[C@@H](O)[C@H](O)[C@H](O)[C@@H]1OP(=O)(O)O	Fermitin family homolog 3, PH domain (Fermt3, Mus musculus, UniProt Q8K1B8)	SPR	–	pH 7.5, biotinylated compound immobilised	284 µM
CC(=O)N[C@H]1C(O)O[C@H](CO)[C@@H](O[C@@H]2O[C@H](CO)[C@H](O)[C@H](O)[C@H]2O)[C@@H]1O (some centres unmarked)	Galectin-3 (LGALS3, Homo sapiens, UniProt P17931)	–	–	–	38.6 ± 0.5 µM
O=C(O)c1cc(NC(=O)C2CC2c2ccccc2)ccc1O (centres unmarked)	GTPase KRas (KRAS, Homo sapiens, UniProt P01116)	microscale thermophoresis	–	first high-affinity site, added: GNP-bound	0.05 ± 0.03 µM
CC(=O)N[C@@H](CC(C)C)C(=O)N[C@@H](CCCCN)C(=O)N[C@@H](CCCCN)C(=O)N[C@@H](CC(C)C)C(=O)N[C@@H](CC(C)C)C(=O)N[C@@H](CCCCN)C(=O)N[C@@H](CC(C)C)C(=O)N[C@@H](CC(C)C)C(=O)N[C@@H](CCCCN)C(=O)N[C@@H](CCCCN)C(=O)N[C@@H](Cc1c[nH]c2ccccc12)C(=O)N[C@@H](CC(C)C)C(=O)N[C@@H](CCCCN)C(=O)N[C@@H](CC(C)C)C(=O)N[C@@H](C)C(=O)NCC(N)=O	16S rRNA A-site hairpin (Escherichia coli)	competitive fluorescence anisotropy	–	pH 7.4, 20 °C, added: rhodamine-Rev peptide	0.024 ± 0.001 µM
N=C(N)NCCC[C@H](NC(=O)c1ccc2c(c1)C(=O)OC21c2ccc(O)cc2Oc2cc(O)ccc21)C(=O)N[C@@H](CO)C(=O)N[C@@H](CCCNC(=N)N)C(=O)N[C@@H](CO)C(=O)N[C@@H](CCCNC(=N)N)C(=O)N[C@@H](CO)C(=O)N[C@@H](CCCNC(=N)N)C(=O)N[C@@H](CO)C(=O)N[C@@H](CCCNC(=N)N)C(=O)N[C@@H](CO)C(=O)N[C@@H](CCCNC(=N)N)C(=O)N[C@@H](CO)C(=O)N[C@@H](CCCNC(=N)N)C(=O)N[C@@H](CO)C(=O)N[C@@H](CCCNC(=N)N)C(=O)N[C@@H](CO)C(=O)O	SRPK1 ΔS	peptide binding, fluorescence	–	added: fluorescein-labelled Arg-Ser peptide	0.022 ± 0.006 µM
O=C(N/N=C/c1ccc([N+](=O)[O-])o1)c1ccc(O)cc1	ERG (Homo sapiens, UniProt P11308)	binding, SPR	–	–	10.8 µM
[I-].[K+]	SLC4A1 (Homo sapiens, UniProt P02730)	Cl- exchange, inhibitor, 36Cl flux	erythrocytes, external	pH 11.6, 0 °C, internal Cl- 131 mM	28600 µM
CC(C)[C@H](N)C(=O)O	Methyl-accepting chemotaxis protein CtaA sensing domain	binding, thermal shift, unfolding equilibrium	–	–	2.5 ± 0.4 µM
CO[C@@H]1O[C@H](CO)[C@H](O)[C@H](O)[C@H]1O	Galectin-9, N-terminal CRD (LGALS9, Homo sapiens, UniProt O00182)	binding, competitive fluorescence polarization	–	20 °C, N-terminal domain	3300 µM
c1ccc2nc3ccccc3cc2c1	HIV-1 SL2 RNA stem-loop	binding, ESI-FTMS titration	–	pH 7.5	2.8 ± 0.3 µM
CNc1ccccc1C(=O)NCCn1ccc(=O)[nH]c1=O	Cereblon isoform 4 (Magnetospirillum gryphiswaldense, UniProt A4TVL0, W36F/W59F)	binding, FRET competitive binding	–	tracer is compound	3.26 µM
CC1=C(/C=C/C(C)=C/C=C/C(C)=C/C=C/C=C(C)/C=C/C=C(C)/C=C/C2=C(C)C(=O)[C@@H](O)CC2(C)C)C(C)(C)C[C@H](O)C1=O	StAR-related lipid transfer protein 3, START domain (STARD3, Homo sapiens, UniProt Q14849)	binding, SPR	–	25 °C	2.09 ± 0.09 µM
CC1=C(/C=C/C(C)=C\C=C\C(C)=C\CO)C(C)(C)CCC1	Retinol-binding protein 1 (Rbp1, Rattus norvegicus, UniProt P02696)	binding, fluorescence titration	–	pH 7.4, 25 °C	0.011 ± 0.002 µM

Repeated from above:
Substance	target	assay	test system	conditions	Kd
[I-].[K+]	SLC4A1 (Homo sapiens, UniProt P02730)	Cl- exchange, inhibitor, 36Cl flux	erythrocytes, external	pH 11.6, 0 °C, internal Cl- 131 mM	28600 µM
C[C@H](N)C(=O)O	Methyl-accepting chemotaxis protein CtaA sensing domain	binding, thermal shift, curve fitting	–	–	2 ± 0.2 µM
O=C1c2c(O)ccc(O)c2C(=O)c2c(NCCNCCO)ccc(NCCNCCO)c21	HIV-1 SL2 RNA stem-loop	binding, ESI-FTMS titration	–	pH 7.5	6.6 ± 0.7 µM
CC(C)C[C@H](N)C(=O)O	Methyl-accepting chemotaxis protein CtaA	binding, ITC	–	melting temperature	10 ± 2 µM
O=C(N/N=C/c1ccc([N+](=O)[O-])o1)c1ccc(O)cc1	ERG (Homo sapiens, UniProt P11308)	binding, SPR	–	–	10.8 µM
COc1cccc2c1C(=O)c1c(O)c3c(c(O)c1C2=O)C[C@@](O)(C(C)=O)C[C@@H]3O[C@H]1C[C@H](N)[C@H](O)[C@H](C)O1	HIV-1 SL2 RNA stem-loop	binding, ESI-FTMS titration	–	pH 7.5	22.7 ± 3.6 µM
